Results gathered from unrelated publications.
A part holds a random share of what one study measured. Positions count from the first letter of the parent shown.

Block 1 — technique: universal PBM; molecule type: double-stranded DNA, one strand shown; medium: in vitro; concentration: not given; reading: higher = stronger binding
Target: Sal-like protein 4, full length isoform B (SALL4, Homo sapiens, UniProt Q9UJQ4-2, residues 1-616)
Notes: 8-mer, flanks averaged, mean of replicates
Oligonucleotide	E-score
ATACAAGG	0.162
CGCACACC	-0.133
ACTACGAT	0.09
CGTTTCCC	-0.246
ATGTCGCC	0.0438
ATTAACCG	0.0787
ACCACGGC	-0.178
AGTTGCAT	0.109
CATCTGGA	-0.196
ACTACTTC	-0.0134
ACAAACCT	0.0876
GCTACGGA	-0.114
GAGTGCCA	-0.112
ACGCTTGG	-0.0858
CGTTAGCC	-0.0816
AGGCCGCG	-0.15
CTAATTTC	0.218
TAGAGAAA	0.0302

Block 2 — technique: protein binding microarray; molecule type: double-stranded DNA, one strand shown; medium: in vitro; concentration: not given; relative to: not given; reading: higher = stronger binding
Target: Histone acetyltransferase KAT6A, winged helix 1, GST fusion (KAT6A, Homo sapiens, UniProt Q92794, residues 1-85)
Notes: 8-mer, flanks averaged, mean of 2 arrays, mostly near background
Target sequence (chain): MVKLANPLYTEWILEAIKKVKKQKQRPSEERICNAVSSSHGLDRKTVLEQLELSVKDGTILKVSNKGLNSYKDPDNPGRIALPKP
Oligonucleotide	E-score
AGGAGCCA	-0.308
GCATAATA	-0.0547
ATCGCCGG	0.38
ATTAATAA	0.00249
GGAGGCTA	0.0878
CAACACCC	-0.173
AAATGACC	-0.204
CCTGATAA	-0.221
GAGTCTGA	-0.226
CTACAGAC	-0.178
GAGGACTC	-0.194
AGCGCGTC	0.377
CAACTAAG	-0.181
CCCGTAGA	0.231
ACAAATGG	0.00282
CCCCAGAC	-0.195
AACTTGGC	-0.167

Block 3 — technique: DHFR PCA, deep sequencing; medium: yeast; with: (+)-ABA 0 µM; relative to: wild-type fitted maximum; reading: higher = stronger binding
Target: ABI1, truncated, D143A, DHFR fusion (Arabidopsis thaliana)
Notes: methotrexate growth selection, single substitutions
Starting sequence: PYL1, truncated, DHFR fusion (Arabidopsis thaliana); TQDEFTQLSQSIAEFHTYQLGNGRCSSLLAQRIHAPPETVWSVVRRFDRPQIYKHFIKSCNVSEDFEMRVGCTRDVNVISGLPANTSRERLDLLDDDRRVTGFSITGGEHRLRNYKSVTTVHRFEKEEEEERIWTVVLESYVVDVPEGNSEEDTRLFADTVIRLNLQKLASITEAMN; partner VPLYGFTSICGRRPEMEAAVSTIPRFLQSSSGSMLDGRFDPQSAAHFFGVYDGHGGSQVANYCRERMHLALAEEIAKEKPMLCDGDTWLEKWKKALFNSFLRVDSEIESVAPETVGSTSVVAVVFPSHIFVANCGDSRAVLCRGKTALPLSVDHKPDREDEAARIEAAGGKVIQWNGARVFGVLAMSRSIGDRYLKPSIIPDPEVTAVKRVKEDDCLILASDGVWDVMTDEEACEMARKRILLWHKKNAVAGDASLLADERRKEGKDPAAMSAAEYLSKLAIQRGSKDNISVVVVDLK
Variant	relative binding score
G108P	-1.27%
Y115T	4.98%
R24F	1.11%
T106S	-1.55%
T1F	22.7%
E131A	34.5%
Q31L	1.42%
A30W	15.8%
T6R	49.1%
D95I	-5.9%
S26W	1.92%
F15T	-2.53%
T106Y	-0.159%
L82T	7.39%
G71Q	-1.35%
Q19C	12.2%
L169I	-3.23%
T101N	-0.869%
D92H	-8.74%
G21P	7.73%

Block 4 — technique: RNA Bind-n-Seq; molecule type: RNA; medium: in vitro; concentration: not given; relative to: input RNA pool; reading: higher = stronger binding
Target: RING finger protein unkempt homolog, zinc fingers 1-6, GST-SBP tag (UNK, Homo sapiens, UniProt Q9C0B0, residues 30-357)
Notes: RNA with constant flanks, human-mouse chimeric sites, ends assumed
Shared flanks, not repeated: GGGAGUUCUACAGUCCGACGAUC … CAACAGAGGAUUGAGCAUCA
Target sequence (chain): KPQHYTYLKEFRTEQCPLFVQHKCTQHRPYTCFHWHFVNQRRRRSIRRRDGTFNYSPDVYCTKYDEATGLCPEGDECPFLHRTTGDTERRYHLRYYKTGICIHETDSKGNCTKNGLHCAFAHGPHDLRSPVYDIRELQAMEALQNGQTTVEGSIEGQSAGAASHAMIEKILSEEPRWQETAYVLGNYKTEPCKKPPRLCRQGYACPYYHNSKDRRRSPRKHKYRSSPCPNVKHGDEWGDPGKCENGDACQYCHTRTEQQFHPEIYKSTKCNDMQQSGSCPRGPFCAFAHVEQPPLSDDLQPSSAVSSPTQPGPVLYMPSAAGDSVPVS
Oligonucleotide	bound/input enrichment
CCUGCUCAGAUCACCAUGAAAGUAAUCCAAGGCCUAUAUAGUGGGGUCACCACAGUGGAACUGGACACUUUGGCUGCUGAGACAGCCGCGACCUUGACUACUAAGCACCCUGACUAUGCC	0.0979 ratio
GCUCCUCCCCGCUCUGCAGCCUGGGGACACUGGGCUGGGACCAGAAUCCAGCUUUCUUUUAAAACUCUAUAUUUUUUUGUAUCCCGUGACAUUUCAUUUUUUUUAAAUAGUGUAUUUUUU	16.3 ratio
UACAUCACCAAUGUCCUACAAAAUCCUGACUUGGCUCUGAGAAUGGCUGUGCGGAACAACUUAGCUGGUGCUGAAGAACUCUUUGCCCGGAAAUUUAAUGCUCUUUUCGCCCAGGGAAAC	0.2 ratio
AAAGAACCUCUCUCUGAUGAAGAUGAGGAAGACAAUGAUGAUGUUGAACCUAUUACUGAAUUUCGAUUUGUGCCCAGUGAUAAGUCAGCAUUGGAGGCGAUGUUCACUGCAAUGUGCGAG	0.198 ratio
AGGAGGAGAUUAAAGGGUGAGAGUGGGGUGGAAGACUGUGUCAUGGCUCUGGAGACACUGUUCAGUGUUCUGCUUUCUCUGUGCAGACUGAUGGCCCCUUACACGCCCUUUCUGACUGAG	0.0657 ratio
GGAUUCCGCUUCCGGUUCCGUUGGGCUCGGUUCUCUCCUGAGCUACGUGUCUCUACGCUCUCAAUCCGCCAUCCAACAAACAUGGAUCAGGUAAUGCAGUUUGUGGAUGAGCCAAGUCAG	0.0191 ratio
UGUAGUUUCUUGAUUUAUCAUUUUUCUCUUUUCUUUCUUUCCUUUAGGAAAAGCCUAAAGAUUAGACUGUAAGAAAAGAAAAUAGAAUGUUUCGAAGACCUGUGUUACAGGUAUUUCGUC	0.469 ratio
CACACACUCUUCUGUGGGACCCUCAUCUUGCAGGCCCGGGCCUAUGUGGGACCCCGUGUCCUGGCAGUGGUGACCCGCACAGGGUUCUGCACGGCAAAAGGGGGCCUGGUGAGCUCCAUC	0.0631 ratio
GCAGGAUCUUCUAAGUACCAGUGGGACAUUAUGAAAUCCCUUGGGCUGUCUGAUGAAGACAUAGUGAAGUUUUCUGAAGCAGAACAUUGGCUUGAUUAUUUCCCACCACUGGCCGUUCAG	0.166 ratio
GGAAGUACAAUGAUGGAGAUUGAUGGUGACAAAGGCAAGCAGGGCGGGCCCACCUACUACAUAGAUACCAAUGCCCUCCGCGUGCCCAGGGAGAAUAUGGAGGCCAUCUCACCACUCAAG	0.263 ratio
AUGGAACAUUUCGAUGCGUCACUCAGUACCUAUUUCAAGGCCUUCCUGGGCCCCCGAGAUACAAGAGUCAAAGGAUGGUUUCUUCUGGACAAUUACAUCCCUACGUUUGUCUGUUCUGUU	0.0984 ratio

Block 5 — technique: protein-binding microarray; molecule type: double-stranded DNA, one strand shown; medium: in vitro; concentration: 940 nM top; notes: 60-bp whole probe; with: salmon DNA 0.4 mg/ml; relative to: random background probes; reading: higher = stronger binding; shared flanks, not repeated: GCCTAGCAC … GTCTTGATTCGCTTGACGCTGCTG
Target: Interferon regulatory factor 5, full length, phosphomimetic (IRF5, Homo sapiens, UniProt Q13568-2, residues 1-514, S451D/S453D/S456D/S462D)
Oligonucleotide	fitted relative affinity [z-score]
GACGGTATCGGGACTGAGGACGTGCTA	2.94
TTAGAACTGGGGACTGGATCAGTGCTA	-0.33
TCAGTTTTCGCTTTCTTACTGTGCTAG	3.05
GATGGACTGGACTATCGGGACGTGCTA	-0.128
GACGAACTGAGTCTCGAGGCGTGCTAG	0.387
TTAGGTATCGGCCTGGGTTAGTGCTAG	5.65
GGTGTAAGGAACTGAAGTGAGTGCTAG	-0.351
TTTTACATTTTAAGAAATGTGTGCTAG	-0.0441
GACGGTATCCTTTGCCTGACGTGCTAG	0.103
TTAGGTTACGACTATCGGTTAGTGCTA	0.469
ATCACTTTCCACTTGTCTTTGTGCTAG	1.84
TCACTTTTTTTTTTCCCACTGTGCTAG	1.54
TTAGATCTAAGTTTCGATTAGTGCTAG	6.72
AGGAAGACATCAAAGAGAGCGTGCTAG	-0.646
GACGGTTTCCGTTTCCTGACGTGCTAG	2.39
TTAGGTCTCCTTCTCCTGTAGTGCTAG	0.602
GACGATAGCGGGACTGGAGACGTGCTA	-0.287
TTAGGTTTCCTACTTCTTTAGTGCTAG	1.03
TCATTTTTATTTTCTGAACTGTGCTAG	1.4
TCATTTTTTACTTCGGGACTGTGCTAG	1.01
TTAGGTATCGGTTTCAGTTAGTGCTAG	10.5
GACGGACTGGGGACGGGGGACGTGCTA	1.2
TATAGGTTGTTTCTAATATTGTGCTAG	0.985
GACGGACTGGGGTTTCGGGGCGTGCTA	1.71
GACGGTATCGACACTGGGAACGTGCTA	3.91

Block 6 — technique: RNA Bind-n-Seq; molecule type: RNA; medium: in vitro; concentration: 365 nM; relative to: no-protein control; reading: higher = stronger binding
Target: RNA binding protein fox-1 homolog 2, RRM domain, GST-SBP tag (RBFOX2, Homo sapiens, UniProt O43251-10, residues 100-194)
Notes: natural RNA segment, single round, ends assumed
Shared flanks, not repeated: GGGAGUUCUACAGUCCGACGAUC … UGGAAUUCUCGGGUGCCAA
Construct (chain): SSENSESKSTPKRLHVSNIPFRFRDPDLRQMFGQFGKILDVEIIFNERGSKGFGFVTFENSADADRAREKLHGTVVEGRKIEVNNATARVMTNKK
Oligonucleotide	RBNS enrichment (R)
CCAGACAGAAGCUCAGGGUGUGUCUAGGAAGCAUUAGUUUUAAAAAGCUGAGUGAUUUUUUUUUUUUCAUCAAUCCACACAUUUUUGUCCAUUGCUGUAAGAGAAGAAAA	0.655
CUCCUACCUGUGAGGUCCCAUCGUGAGUCACUGGGAUUUGUGUUGCAUGGAAGGCAGUCUUUCCUGUUGUAAAUCUUCCUUUUUUAUGUACAAAUAUUUUGAAAAAUAUG	1.01
CCCAAAGCAGUCAUGGUGCACAUCCUAACUUUGGGGUUGGCGGUGAGCCGGCCCCACUCUCUGGGUCACCUGACUUUGCUCCCGACGACUCGGCUCCCUGCCGAGGCUCA	0.209
UGCUGGGGACAAUCCCGGGUAGGAAUGAUGGGAUCUAAAUGACACCGGAGGCUCUGGGGGGAGGGCAGCCUUUCAGUCAGCCCCCAUGCCUGCUGGGCUCUGGGCAGCCC	1.99
AUUCAAAAACUUGAAAUGCAGGACGCCAUUAAGUGUCUGUUUAUAUUUUUGGAAUAUUUGUAUUACUUACAAUUAAUUAAUAAAAGUGGGUUUAAAAAACCUUUCCAGGA	0.464
AAUGCCUUAAUGUAAUUAGCCUCAGUUUGAGGACACCAUACAAGACGUGGGACACCAUUCAAUUGAUUGCUUUAAGGAAUUUUUAGAGACAUUAUACAGUAUCCUUUUCA	0.652
GUUAGGAGUAUUUUUGUAUUUUGUCAGAUGUUUAGGAGACAGACUUUCGGGUCAUGUUUCUUGUCUUGUUCCCAGAUCUUUUCUUAAAAGAACAGUGUGACACCAGAAGC	0.517
UCUCUUUAAAAUUUCAAGUGUUAUCAUGAUUGUUUAUAUGAAUGUAGAACACCUCGGUAUUUCUUUUUAUAUAUAUAAACUAUUUAAUAAAAAUGAAAGAUUGAAUGUUA	2.11
ACUGCUGGGUGGCCCAUCCCCCCUCACCAGGGGCAGGCACAGCACAGGGAUCCGACUUGAAUUUUCCCACUGCACCCCCUCCUGCUGCAGAGGGGCAGGCCCUGCACUGU	0.421
UGCCAAAACCAGCAAGUACACCGAAUCCUGAGACAAGGCAGUUCUUGUGACAGUGCCUUGGCCUCCUGGAAGCAGUCUGAGCCCUCCUGUUCCCAGGAUCACGAGAAACA	0.332
AUUAGAAAAGGCUUAUGUUAGCAUAGCUUAAGAGCAACCUCAGAGAUUUGAGCCCUACUAAGUGACUGACCACUGUUUAGAGUGUCUGGUAUCUGAUGUUCAUUUAUUCC	0.359
UUUCUGCAAUUCCUUUGGGCGAUUUCUGAAAGUUGCCACCCACGUACUCACAGAUCCACUGCCCGCCUCUCCUCCCCUCAUGUUCCAGGACUCACCACCGUGGUCAGACC	0.322

For quick reference, copied from above (block 2):
Oligonucleotide	E-score
AGGAGCCA	-0.308
GCATAATA	-0.0547
ATCGCCGG	0.38
ATTAATAA	0.00249
GGAGGCTA	0.0878
CAACACCC	-0.173
AAATGACC	-0.204
CCTGATAA	-0.221
GAGTCTGA	-0.226
CTACAGAC	-0.178
GAGGACTC	-0.194
AGCGCGTC	0.377
CAACTAAG	-0.181
CCCGTAGA	0.231
ACAAATGG	0.00282
CCCCAGAC	-0.195
